Measured values of several laboratories.
Protocols differ between the studies behind these lines. Values joined by “and” are separate records of one study, mostly repeats; a detail may differ. ± marks the error that the study gave.

SMILES	cell line	assay	test system	conditions	IC50
O=C(NCc1cc(F)cc(F)c1)[C@@]1(O)CCN(c2ccc3[nH]ccc3c2)C1=O	B16-F10	cell growth or viability	–	–	2000 nM
CCc1c(-c2ccc3[nH]ncc3c2)cnc(N)c1-c1ccc(O)cc1	CHP-212 parental	cell viability, SRB	–	–	13200 nM and 14200 nM and 14000 nM
C=CC(=O)N1CCCC(n2c(=O)c3ncccc3n(Cc3ccc(Oc4ccccc4)cc3)c2=O)C1 (centres unmarked)	SU-DHL-4	cell growth or viability, MTT	–	72 h	40 nM
Cc1ccccc1Nc1c(C2CN(C(=O)OC(C)(C)C)C2)nc2c(Br)c(F)ccn12	UMRC2	–	–	–	2800 nM
O=CCNCCOn1c(=O)n(OCCNCCO)c(=O)n(OCCNCCOn2c(=O)n(OCCNCCO)c(=O)n(OCCNCCO)c2=O)c1=O	A549	cell growth or viability, MTT	–	72 h	11.8 µg/mL
O=C1/C(=N\c2ccc(Cl)cc2Br)c2ccccc2N1C(=O)c1ccccc1Br	B16	cell growth or viability, MTT	–	48 h	26000 nM
C=CCOCO[C@H](C(=O)NC[C@@H]1C[C@@H](OC)C(C)(C)[C@@H](C[C@@H](COC)OC)O1)[C@@]1(OC)CC(=C)[C@@H](C)[C@@H](C)O1	B16	cell growth or viability, SRB	–	72 h	3050 nM
CCn1nc(Cl)c2c1-c1cnc(N)c(c1)O[C@H](C)c1cc(F)ccc1-c1nn(C)cc1C2	Ba/F3 CD74-ROS1 G2032R	cell viability	–	–	1.1 nM
CC(C)C(=O)Cc1c(OCC(O)C(C)(C)O)ccc2ccc(=O)oc12 (centres unmarked)	COLO 320 multidrug-resistant	cytotoxicity, MTT	–	24 h, 10% fetal bovine serum	> 100000 nM
Cc1cc(C)n(CO)n1	BEAS-2B	cell growth or viability, MTT	–	24 h	> 800000 nM
Cc1sc2c(c1C)C(c1ccc(Cl)cc1)=N[C@@H](CC(=O)NCCN(C)CCCCNC(=O)CCCCOc1cccc3c1C(=O)N([C@H]1CCC(=O)NC1=O)C3=O)c1nnc(C)n1-2	KATO III	cell growth or viability, CCK-8	–	72 h	> 10000 nM
CN1CCC(N[C@H]2CCc3[nH]c4c(C(N)=O)ccc(-c5ccccc5Cl)c4c3C2)CC1	A549/DDP, cisplatin-resistant	cell growth, CellTiter-Glo	–	96 h	377 nM
O=C1CCC(N2C(=O)c3ccc(N4CCC(C(=O)N5CCC(CCN6CCC(CNC(=O)c7cccc(-c8noc(C(F)(F)F)n8)c7)(c7nc(-c8ccccc8)cs7)CC6)CC5)CC4)cc3C2=O)C(=O)N1 (centres unmarked)	SU-DHL-4	cell growth or viability, CCK-8	–	7 days	650 nM
CC(=O)[O][Pd][c]1ccccc1-n1nc(C)cc1C.CC(=O)[O][Pd][c]1ccccc1-n1nc(C)cc1C	BEAS-2B	cell growth or viability, MTT	–	24 h	13200 nM
CSCC[C@@H](N)C(=O)N[C@@H](CC(C)C)C(=O)N[C@@H](CCCNC(=N)N)C(=O)N[C@@H](Cc1c[nH]c2ccccc12)C(=O)N[C@@H](CO)C(=O)N[C@@H](CCCNC(=N)N)C(=O)N[C@@H](CCCCN)C(=O)N[C@@H](CCSC)C(=O)N1CCC[C@H]1C(=O)N[C@@H](CS)C(=O)N[C@H](C(=O)N[C@@H](CO)C(=O)O)C(C)C	SUP-T1	Erk phosphorylation, inhibitor, phospho flow cytometry	–	with: CXCL12 100 ng/mL	45600 ± 26000 nM
O=C1/C(=N\c2ccc(Cl)cc2)c2ccccc2N1Cc1ccccc1	B16	cell growth or viability, MTT	–	48 h	1990 nM
C=CC(=O)Nc1cc(Nc2nccc(-c3cn(C)c4ccccc34)n2)c(OC)cc1N(C)CCN(C)C	Ba/F3 EGFR 19Del BBT-176-resistant BR2	cell growth	–	72 h	19 nM
CC(=O)[O][Pt]([NH2])([NH2])([Cl])([Cl])[O]C(=O)CCCc1ccccc1	PSN1	cell growth or viability, MTT	–	72 h	1580 nM

SMILES	cell line	assay	test system	conditions	IC50
CN1C(=O)/C(=N\c2ccc(Cl)cc2Br)c2ccccc21	B16	cell growth or viability, MTT	–	48 h	9270 nM
Cc1nc(Nc2ccc3c(c2)/C(=C/c2ccccc2Cl)C(=O)N3C)c2ccccc2n1	B16	cell growth or viability, MTT	–	–	3090 nM
O=C1/C(=N\c2ccc(Cl)cc2Br)c2ccccc2N1C(=O)c1ccccc1	B16	cell growth or viability, MTT	–	48 h	> 100000 nM
[BH3-][P+]1(c2ccccc2)CCC(=O)CC1	SW-620	cell growth or viability, MTT	–	72 h	> 100000 nM
Cc1cc(N)n(-c2ccc(Oc3ccccc3)c(S(=O)(=O)O)c2)n1	HEK293 AP-1-luc cells	reporter gene	–	24 h, 20% serum	50 nM
Cc1nc(Nc2ccc3c(c2)/C(=C/c2ccccc2)C(=O)N3)c2ccccc2n1	B16	cell growth or viability, MTT	–	–	4230 nM
CNS(=O)(=O)Nc1nccc(Cc2c(C)c3ccc(Oc4ncccc4F)cc3oc2=O)c1F	SU-DHL-8	cell viability	–	7 days	> 1000 nM
Cn1ncc(-c2ccc3c(=O)[nH]nc(CN)c3c2)c1-c1c(F)c(Cl)cc(OC2CC2)c1C#N	SF763	cell viability, CellTiter-Glo	–	120 h	1300 nM
C=CC(=O)N1CC2C(=O)N(CCN(C)C)c3c(c4cc(Cl)c(-c5c(O)cccc5F)nc4n(-c4c(C)ccnc4C(C)C)c3=O)N2CC1C (centres unmarked)	SW837	cell growth or viability	–	–	7.96 nM
Cc1nc(N(C)c2ccc3c(c2)/C(=C/c2ccccc2C)C(=O)N3C)c2ccccc2n1	BEAS-2B	cell growth or viability, MTT	–	–	11400 nM
Cc1cc2cc(C(=O)N(Cc3ccc(C(F)(F)F)cn3)[C@H](C)c3ncccn3)ccc2nc1N	U-87 MG	–	–	–	65 nM
Cc1nc(Nc2ccc3c(c2)/C(=C/c2c[nH]c4ccccc24)C(=O)N3)c2ccccc2n1	B16	cell growth or viability, MTT	–	–	790 nM
CCOc1cncc(-c2ccc(NC(=O)C3(c4ccnc(NS(=O)(=O)C5CC5)n4)CCOCC3)nc2)n1	renal cancer	cell viability, CellTiter-Glo	DMSO 0.1%	72 h, line code 1220	89 nM
NC(=O)c1ccc(-c2ccccc2Cl)c2c3c([nH]c12)CCC(N)C3 (centres unmarked)	MX1	cell growth or viability	–	96 h	18.2 nM
O=C1/C(=N\c2ccc(Cl)cc2Br)c2ccccc2N1Cc1cccc(Cl)c1 (mixture of isomers)	B16	cell growth or viability, MTT	–	48 h	2070 nM
COc1ccc(O)c(C(=O)c2cnn(-c3oc(C)nc3C#N)c2)c1	CHO	cytotoxicity, MTT	–	–	> 50000 nM
CC(C)c1ccc(N(C)c2ccc3c(c2)OCC[C@H]3CNc2cnccc2C(=O)O)cc1	COR-L279	cell growth or viability, ATP luminescence	–	7 days	4.34 nM

Excerpt of the above:
SMILES	cell line	assay	test system	conditions	IC50
Cn1ncc(-c2ccc3c(=O)[nH]nc(CN)c3c2)c1-c1c(F)c(Cl)cc(OC2CC2)c1C#N	SF763	cell viability, CellTiter-Glo	–	120 h	1300 nM
C=CC(=O)N1CC2C(=O)N(CCN(C)C)c3c(c4cc(Cl)c(-c5c(O)cccc5F)nc4n(-c4c(C)ccnc4C(C)C)c3=O)N2CC1C (centres unmarked)	SW837	cell growth or viability	–	–	7.96 nM
Cc1nc(N(C)c2ccc3c(c2)/C(=C/c2ccccc2C)C(=O)N3C)c2ccccc2n1	BEAS-2B	cell growth or viability, MTT	–	–	11400 nM
Cc1cc2cc(C(=O)N(Cc3ccc(C(F)(F)F)cn3)[C@H](C)c3ncccn3)ccc2nc1N	U-87 MG	–	–	–	65 nM
